# Experimental data gathered from unrelated publications.
# Each numbered part is a random draw from the data of one study; scales do not carry over between parts.

# Sample 1 — technique: protein binding microarray; molecule type: double-stranded DNA, one strand shown; matrix: in vitro; concentration: not given; baseline: not given; reading: higher = stronger binding
# Target: Histone acetyltransferase KAT6A, winged helix 2, GST fusion (KAT6A, Homo sapiens, UniProt Q92794, residues 85-181)
# Setting: 8-mer, flanks averaged, mean of 2 arrays, mostly near background
# Residues (chain): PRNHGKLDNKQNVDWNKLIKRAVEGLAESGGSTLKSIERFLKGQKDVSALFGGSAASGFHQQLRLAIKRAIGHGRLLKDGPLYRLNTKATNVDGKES
Oligonucleotide,E-score
GACTTATC,-0.306
CCTAGCCG,0.0374
CTCTTGCA,-0.0703
CTGACTGC,-0.0834
AGTCCATG,-0.242
TGAGAACA,0.16
GAACAAAC,0.106
ACAGTAAC,-0.0982
ATCTCTTA,-0.179
CGGATTGC,0.171
CAACTTTA,0.0203
TAACAAAA,0.105
CCGTTACC,0.0275
AGAAGAAG,0.0241
TGAAACCA,0.0722
AAGTCCAA,0.0747
CAACTCAC,0.134
CAGCACAC,-0.00962
GCGCTAGC,0.048
AGGGCCAG,0.052
CCCGAGCG,0.193
CTCATAAA,0.0216
CAGAGTAC,0.0416
GAATCAAC,0.157

# Sample 2 — technique: RNA Bind-n-Seq; molecule type: RNA; matrix: in vitro; concentration: 200 nM; setting: whole 134-nt RNA, ends assumed; added: 150 mM LiCl; baseline: input library; reading: higher = stronger binding; all molecules: 7-deaza-guanosine replaces G
# Target: Fragile X messenger ribonucleoprotein 1, C-terminal low-complexity region (Fmr1, Mus musculus, UniProt P35922)
# All sequences stand within: GGGAGUUCUACAGUCCGACGAUC … UGGAAUUCUCGGGUGUCAAGG
Oligonucleotide,log2 enrichment
GCCCAUGCUAAAGUAAGAUUGUCUAACAAAGUUGAAGCCAUUGAUGUGGAAGAGGCCAAACGCCUCCAUCGGGAAGCUCUGAAGCAGUCU,0.0354
UCCUGUGCUACACAUCGUAUGUACCGAAUCGGAAAAAAGGGAAAAAAGGGAAAAAAGGGAAAGUAUUAUGUUACGCCGUUCGGAUCUGCA,-0.153
UUCUCUCUCUCCCUUUGCAGCCGCUGUACAACCAGCCCUCCGACACCCGGCAGUAUCAUGAGAACAUCAAAAUGUGAGUGCUCGCGGGCA,0.923
UGGGAGGUGGAUUUUGUUUAUUUUUUUAGCUCAUUUCCAGGGGUGCGAAUUUUUUUUUAAUAUGUGUCAUGAAUAAAGUUGUUUUUGAAA,-0.459
CACAGACAACACGCACCCACACAGACACAGAGGGAAGGGGUUGGGAUGGGGACAGGGUGCACAGCAGGGCGGAAAAGGACCCCAGCCCCU,1.76
CUCAAGUCCUGUGCUACACAUCGUAUGUACCGAAUCGGAAAAAAAGGAGGUGGAAAGUAUUAUGUUACGCCGUUCGGAUCUGCACUUCCA,-0.732
AGUCCUGUGCUACACAUCGUAUGUACCGAAUCGGGGAAAAGGAAAAGGGGAAAAGGGAAAGUAUUAUGUUACGCCGUUCGGAUCUGCACU,-0.797
UGGGAGGUGGAUUUUGUUUAUUUUUUUAGCUCAUUUCCAGGGGUGGGAAUUUUUUUUUAAUAUGUGUCAUGAAUAAAGAUGUUUUUGAAA,-0.359
GUCCUGUGCUACACAUCGUAUGUACCGAAUCGGGGAAAAAGGGGAAAAAGGGAAAAAGGAAAGUAUUAUGUUACGCCGUUCGGAUCUGCA,0.565
GCAGGAAGUAAAAACAAAUGGAAAUGCUUCGGAUAGUGGCAGGGGUGGGGGUUGCUAACGAAAGGGUGGGAUGGGAGUGGGUAAAGAGUU,1.22
AGUCCUGUGCUACACAUCGUAUGUACCGAAUCGGGUGGGAAAAAAAGGGAAAAAGGGAAAGUAUUAUGUUACGCCGUUCGGAUCUGCACU,-0.853

# Sample 3 — technique: RNA Bind-n-Seq; molecule type: RNA; matrix: in vitro; concentration: 365 nM; baseline: no-protein control; reading: higher = stronger binding
# Target: RNA binding protein fox-1 homolog 2, RRM domain, GST-SBP tag (RBFOX2, Homo sapiens, UniProt O43251-10, residues 100-194)
# Setting: natural RNA segment, single round, ends assumed
# All sequences stand within: GGGAGUUCUACAGUCCGACGAUC … UGGAAUUCUCGGGUGCCAA
# Construct (chain): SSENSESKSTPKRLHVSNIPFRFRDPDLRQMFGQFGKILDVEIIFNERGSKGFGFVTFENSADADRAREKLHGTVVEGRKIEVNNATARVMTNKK
Oligonucleotide,RBNS enrichment (R)
UAAACUGAUAAAGGGUGUUUAUUUUUACUUUUAGAAUUGGUCCUAUGAAGAAGUAGAAAGUGAGUCAUGCACUAGACAGUGGGCCUAGCUCAUCAGUGGCUAAAGUUGAA,0.8
CGCAUGGUGUCCUACAGCAGCAGUUUCUGUCUUUGUAAUUCCUUGUUGACCACAUACAGCAGGCAGCUUCACGUCCUCCCGCUAACAUCUGCUGCCUUAGACCUGGGUGG,0.982
CCAACCUGUGGCUGUGGAUGAACCAGUGUCGCCCCAGCGCGGCCUCCGUAUUGGAGCCCUCCCUGCUUCCCCUUCUUUCUUUCCUCUUUCCCCAGGCCGCCACUGCCCUU,0.686
ACCUCUAAUUUAUUUUGUUGAAUUUUUAUUAUUUGUUUUCCCGCAAAGCGGAAAAUGUUUUAUUUUGUAAUUAUUGUGAUCUCCUGUGGCCCCAGCCUGGCCCAGCCCCC,1.07
CUAACAGGAGGAGUGAUUUGCCCAGGGUUUUUAGCCCUCUCUGGUACAGAACUGGGAUGUGAACAUUGGUCAGAGACCCCACCCAUUAGUAGCUGGAGCCUCUGGGCUCC,0.213
AUUGUGCUCUCUGUGGAACUGAAGUUUGAUUUAUUUUUGUACUACACGGCAUGGGUUUGUUGACACUUUAAUUUUGCUAUAAAUGUGUGGAAUCACAAGUUGCUGUGAUA,1.63
CACCCCCACAGACAUGGACUGGCUAUGAUCCUAGCUGGAAUAGCAGCACCUGCCUUUCCCUCCUGGGUCUCCUUGCCGCGUGCUGAGCCGAGGCAGGCCUGCAGGGCCUG,0.259
GGACCUAGAAGUUGAGUUAUUACUAAAAACUUUGAGUGCGAAGAUAUUACUCAUUAACCAGAUAACAAGUGAAUAUGCUGUAGCAUCAACAUAAUUCAAAAGAGUAAAGA,0.435
UUCUAGACUCUUAAAUAAUCACUGUAUUUUUCUCAAGUAUUUGUUAUUUUUUAUUAUCCUUUAGAUCUUUUUGUUCAUGGCUCUUUAAAAAUAGUUUUACUGAUAAUCCA,1.46
AAGAGAGGUUUUGGCUUGUCACAGCAAGGGGAUGCUCUUGGCAUCUAGUGAGUGGAGGCCAGGGAUGCUGCCCUGCCACUGCCAUUGGGCCUCAGAGCUCAGUCUUGCCA,0.575
CUUUUGCAGUACUUCUCCAUGCCUUCCCUGCUACAAGUGUUUUUAGAUGUUAUUACUGUACUUUCCCCAAAUUCUGCUCCUGUACUUGCAAACUGAAGGUAACUAUACCU,1.01
CUGCGGGUUGUAGCUAAAUAUUCCAUUUCUUUGAAAUCAUGUUUCUAAAUUCUUUACCAUCAGAAAGAAAAGGAGUGUCAUACACUUUCAAGGGAAGGCUUGGUCUGCGU,0.412

# Sample 4 — technique: Spec-seq; molecule type: double-stranded DNA, one strand shown; matrix: in vitro; concentration: not given; setting: whole probe, mean of replicates; baseline: not given; reading: lower = stronger binding; all sequences stand within: GAGTCGTCTCGTCAGCAC … CCGTAGAGCACTCAGGTC
# Target: POU domain, class 5, transcription factor 1, POU domain (Pou5f1, Mus musculus, UniProt P20263, residues 131-289)
# Sequence of UniProt P20263 (131-289, looked up): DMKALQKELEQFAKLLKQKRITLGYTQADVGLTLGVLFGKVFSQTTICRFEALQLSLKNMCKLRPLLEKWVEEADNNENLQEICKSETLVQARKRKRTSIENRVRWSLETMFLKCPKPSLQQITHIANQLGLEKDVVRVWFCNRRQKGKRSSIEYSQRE
Oligonucleotide,relative binding energy [ln ratio]
GTACTAAT,0.608
CCTCTAAT,0.945
TAGGTAAT,0.838
ATGCATCC,-0.313
TGGATAAT,0.591
ATCGCAAT,0.485
ATACTAAT,-0.0635
ATGCATAT,-2.05
CCACTAAT,0.83
ATGCCTCG,0.322
TGTGTAAT,0.642
ATGCGGCT,0.377
GATTTAAT,0.2
ATGCGGAA,0.37
ATGCGTGA,0.0938
GAACTAAT,0.464
TTTGTAAT,0.21
ACTATAAT,0.376
ATGCCGCA,0.789
ATGCCGTG,0.852
ATCGGAAT,0.175
ATGCTTAA,0.221
ATGTGTAT,0.258
ATGCACAC,-0.0185
ATGCACTT,0.083

# Sample 5 — technique: protein-binding microarray; molecule type: double-stranded DNA, one strand shown; matrix: in vitro; concentration: 250 nM; setting: 60-bp whole probe; added: salmon DNA 0.4 mg/ml; baseline: random background probes; reading: higher = stronger binding; all sequences stand within: GCCTAGCAC … GTCTTGATTCGCTTGACGCTGCTG
# Target: Interferon regulatory factor 5, full length, phosphomimetic (IRF5, Homo sapiens, UniProt Q13568-2, residues 1-514, K96S/S451D/S453D/S456D/S462D)
Oligonucleotide,log fluorescence [z-score]
TTAGGACTGGGGTTTCGGTCAGTGCTA,6.27
GACGGTTTCCTTATCCAGACGTGCTAG,0.757
TCATAAATGATATATATCACTGTGCTA,1.02
GACGGTTTCCTACTGATGACGTGCTAG,0.446
TTACGTATCGACACTGGGTTAGTGCTA,3.36
GACGGACTGGCTCTCGGGACGTGCTAG,-0.634
GACGGACTGCTTATCCTGGCGTGCTAG,-0.738
TTAGGTCTCGTACTGGGTTAGTGCTAG,-0.131
TCACATATACACTGTGTAACTGTGCTA,0.567
GCTAGTTCAGTTCTCTAGAAGTGCTAG,-0.212
GTAGATATCAGACTGGATTAGTGCTAG,0.039
TCACCCCTAGGGGGCAGTATGTGCTAG,0.286
TTAGGTTTCCTTCTCCTTGAGTGCTAG,1.1
GACGGTATGGGGACTGGGGACGTGCTA,-0.0192
TTAGGTCTAGGTCTCGGTTAGTGCTAG,0.0512
TTAGGACTGGGGACCGGGTTAGTGCTA,-0.3
TTAGGTTACGGTCTCGGTTAGTGCTAG,0.753
TCATCTTCTCCTCTAGGACTGTGCTAG,0.277
GTAGAACTGGGGTTTCGATTAGTGCTA,5.64
GGCGGTCTCCTACTGCTGACGTGCTAG,-0.908
TCAGTTTACATTTTCCAACTGTGCTAG,0.816
CTTTCTGTCAGTTTTGAGCTGTGCTAG,5.26
TTAGAACTTAGTCTCGATTAGTGCTAG,1.14

# For quick reference, copied from above (sample 1):
Oligonucleotide,E-score
CAACTCAC,0.134
CAGCACAC,-0.00962
GCGCTAGC,0.048
AGGGCCAG,0.052
CCCGAGCG,0.193
CTCATAAA,0.0216
